Published values from different studies.
Protocols differ between the studies behind these lines. Values joined by “and” are separate records of one study, mostly repeats; a detail may differ. Numbers after ± are the reported error.

SMILES	target or system	test	system	setting	how to read	endpoint	result
CC(c1cc2ccccc2s1)N(O)C(N)=O (stereo not drawn)	–	–	human blood	3 µM, with: A23187	–	12-HETE level	8470 ± 2990 pg/mL
CN(C)C(=O)c1cc2cnc(Nc3ccc(N4CCNCC4)cn3)nc2n1C1CCCC1	–	–	HR+/HER2− advanced breast cancer patients	dose not given, (neo)adjuvant hormone therapy	–	median PFS2	30.4 months
CCc1oc2ccccc2c1C(=O)c1cc(Br)c(O)c(Br)c1	–	–	male mouse, acute hyperuricaemia model, serum	oral, 2 mg/kg, 4 h	–	serum uric acid	283 ± 154 µM
COc1cc2cc(-c3ccc(CC(=O)Nc4cc(C(C)(C)C(F)(F)F)no4)cn3)cnc2cc1OC	–	RECIST v1.1	RET-altered advanced solid tumour patients	oral, 100 mg once daily, phase I	–	objective response rate	67%
Cc1ccc(C(=O)OCc2ccc([C@@H](CN)C(=O)Nc3ccc4cnccc4c3)cc2)c(C)c1	–	tonometry	Macaca cyclopis, ocular normotensive	ocular, 0.02%, 56 h	–	IOP	14.9 mmHg
N#Cc1ccc2c(-c3ccncc3)c(-c3ccc(F)cc3)nn2c1	–	kinase binding, competitor, MIB/MS competition, refers to: CKA2	Candida albicans cell lysate	100 nM	baseline: DMSO	log2 fold change	0.124
[Cl-].[Cl-].[Pt+2].[Ru+2].c1ccc(-c2nccnc2-c2ccccn2)nc1.c1cnc2c(c1)ccc1cccnc12.c1cnc2c(c1)ccc1cccnc12	–	–	–	concentration not given, first substitution step, with: L-methionine	–	activation enthalpy	32 ± 2 kJ/mol
COC(=O)c1ccc2c(c1)NC(=O)/C2=C(\Nc1ccc(N(C)C(=O)CN2CCN(C)CC2)cc1)c1ccccc1	–	–	rat, bleomycin lung fibrosis	oral, 60 mg/kg daily, day 14	–	lung hydroxyproline level	no effect
COc1cc2nccc(Oc3ccc(NC(=O)NC4CC4)c(Cl)c3)c2cc1C(N)=O	–	PK/PD model bootstrap median	Thyroid cancer patients, differentiated, radioiodine-refractory	–	–	rate constant of resistance appearance	0.248 /week
COc1cc2c(NC3CCN(C)CC3)nc(N3CCCN(C)CC3)nc2cc1OCCOCCN(C)C	OCI-Ly1	–	–	0.1 µM, 120 h	–	viability	188%
CC(C)[C@H](NC(=O)[C@H](Cc1ccc(O)cc1)NC(=O)[C@H](Cc1ccc(O)cc1)NC(=O)[C@@H]1CCCN1C(=O)[C@H](CCC(=O)O)NC(=O)[C@H](CCC(=O)O)NC(=O)[C@H](Cc1c[nH]c2ccccc12)NC(=O)[C@@H]1CCCN1C(=O)[C@@H](NC(=O)[C@H](CCC(N)=O)NC(=O)c1ccc2c(c1)C(=O)OC21c2ccc(O)cc2Oc2cc(O)ccc21)C(C)C)C(=O)N[C@H](C(=O)N[C@@H](CCCCN)C(=O)N[C@@H](CCCCN)C(=O)N[C@@H](CO)C(=O)N[C@@H](CO)C(=O)NCC(=O)NCC(N)=O)C(C)C	–	surgeon confidence in nerve	human head and neck surgery, nerves	500 mg, very much improved	baseline: white light	share of responses	7.1%
Cn1cc(Nc2nccc(-c3ccc4c(c3)CN(C3COC3)CC[C@H]4NC(=O)c3cn(C(C)(C)C)nn3)n2)cn1	–	refers to: Unfolded protein response	splenic B cells, mouse	in vivo, 30 mg/kg, IgD-activated B cells	baseline: vehicle, positive = activation	pathway activation z-score	-2.14
Cc1cc(C)c(CNC(=O)c2cc(Cl)c3c(c2C)O[C@@](C)([C@H]2CC[C@H](N(C)C)CC2)O3)c(=O)[nH]1	–	–	human relapsed/refractory NHL	dose not given, measurable baseline disease	–	complete response rate	25%
NC(=O)c1cnc2[nH]ccc2c1N[C@@H]1[C@@H]2CC3C[C@H]1C[C@@](O)(C3)C2	–	flow cytometry	Japanese healthy men, blood	oral, 100 mg twice daily, 72 h after day 7 dose	baseline: baseline	CD8+ effector T-cell change	0.27%
O=C(O)/C=C/c1nccc2c3ccccc3n(Cc3ccc(Br)c4ccccc34)c12	–	–	mouse, acute hyperuricaemia model	oral, 2 mg/kg	–	serum uric acid	273 µM
COc1nnc2ccc(N3CCC(c4ccc(OCCN5CCN(C)C(=O)[C@H]5C)cc4)CC3)nn12	–	–	human patients	20 mg twice daily, 2-fold above baseline	–	time above HEXIM1 threshold	5.48 h
[Cl-].[Cl-].[Pt+2].[Ru+2].c1ccc(-c2nc3cc4ccccc4cc3nc2-c2ccccn2)nc1.c1cnc2c(c1)ccc1cccnc12.c1cnc2c(c1)ccc1cccnc12	–	–	–	concentration not given, first substitution step, with: thiourea	–	activation enthalpy	22 ± 1 kJ/mol
CC(C)C[C@H](NC(=O)[C@H](CC(C)C)NC(=O)[C@H](Cc1c[nH]c2ccccc12)NC(=O)[C@H](CCC(=O)O)NC(=O)[C@@H](NC(=O)[C@H](Cc1ccccc1)NC(=O)[C@H](CCC(=O)O)NC(=O)[C@H](CCCCNC(=O)COCCOCCNC(=O)COCCOCCNC(=O)CC[C@H](NC(=O)CCCCCCCCCCCCCCCCCCC(=O)O)C(=O)O)NC(=O)[C@H](C)NC(=O)[C@H](CCCCN)NC(=O)[C@H](CCCCN)NC(=O)[C@H](CCC(=O)O)NC(=O)[C@H](CC(=O)O)NC(=O)[C@H](CC(C)C)NC(=O)[C@H](Cc1ccc(O)cc1)NC(=O)[C@H](CCCCN)NC(=O)[C@H](CO)NC(=O)[C@H](Cc1ccc(O)cc1)NC(=O)[C@H](CC(=O)O)NC(=O)[C@H](CO)NC(=O)[C@@H](NC(=O)[C@H](Cc1ccccc1)NC(=O)[C@@H](NC(=O)CNC(=O)[C@H](CCC(N)=O)NC(=O)C(C)(C)NC(=O)[C@@H](N)Cc1c[nH]cn1)[C@@H](C)O)[C@@H](C)O)C(C)C)C(=O)N[C@@H](CCC(=O)O)C(=O)NCC(=O)NCC(=O)N1CCC[C@H]1C(=O)N[C@@H](CO)C(=O)N[C@@H](CO)C(=O)NCC(N)=O	–	–	human	dose not given, day 134	baseline: placebo	VAS hunger change	decreased
[Mn+2]	–	flow cytometry	CD4-negative PBMC, BALB/c mouse	dose not given	baseline: no Mn2+	CD18-low cell fraction	35 and 67.5 and 88 and 29.5 and 81 and 47.1 and 25.4 and 88.6
O=C(/C=C/C#Cc1cccc(NS(=O)(=O)c2ccccc2)c1)NO	OCI-Ly1	–	–	0.1 µM, 120 h	–	viability	142%

SMILES	target or system	test	system	setting	how to read	endpoint	result
Cc1n[nH]c2ccc(-c3cc(OC[C@@H](N)Cc4ccccc4)cnc3-c3ccoc3)cc12	–	kinase binding, competitor, MIB/MS competition, refers to: PKH2	Candida albicans cell lysate	100 nM	baseline: DMSO	log2 fold change	-0.165
CCN(Cc1nc2c(N)nc3cc(-c4cc[nH]n4)ccc3c2[nH]1)C(C)=O	–	–	human	intratumoural, 2000 µg	–	duration of response	22.9 months
CC(=O)Nc1ccc(O)cc1	–	barrier function (TEER)	human ileal GI microtissue EpiIntestinal-FT	–	–	IC15	> 100 µM
C[C@@H](NC(=O)N1C(=O)[C@H](Cc2ccnc(N)c2)[C@H]1C(=O)O)C1CCCCC1	–	–	human	iv infusion, 0.3 mg/kg/h, 24 h, unit not given	baseline: baseline	ACT Emax	1.09
CC(=O)NCC(=O)NCC(=O)N[C@H](C(=O)N[C@@H](Cc1ccc(O)cc1)C(=O)N[C@@H](CO)C(=O)N[C@H]1CSSC[C@@H](C(=O)N[C@@H](CCCNC(=N)N)C(=O)N2CCC[C@H]2C(=O)N[C@@H](CCC(N)=O)C(=O)N[C@@H](CCCNC(=N)N)C(=O)NCC(=O)NCCC(=O)N[C@@H](CCCCNC(=O)CN(CC(=O)NCCCC[C@H](NC(=O)CCNC(=O)CNC(=O)[C@H](CCCNC(=N)N)NC(=O)[C@H](CCC(N)=O)NC(=O)[C@@H]2CCCN2C(=O)[C@H](CCCNC(=N)N)NC(=O)[C@@H]2CSSC[C@H](NC(=O)[C@H](CO)NC(=O)[C@H](Cc3ccc(O)cc3)NC(=O)[C@@H](NC(=O)CNC(=O)CNC(C)=O)[C@@H](C)O)C(=O)N[C@@H](Cc3c[nH]cn3)C(=O)N[C@@H](Cc3ccccc3)C(=O)NCC(=O)N[C@@H](C)C(=O)N[C@@H](CC(C)C)C(=O)N[C@@H]([C@@H](C)O)C(=O)N[C@@H](Cc3c[nH]c4ccccc34)C(=O)N[C@@H](C(C)C)C(=O)N2)C(N)=O)C(=O)CCN)C(N)=O)NC(=O)[C@H](C(C)C)NC(=O)[C@H](Cc2c[nH]c3ccccc23)NC(=O)[C@H]([C@@H](C)O)NC(=O)[C@H](CC(C)C)NC(=O)[C@H](C)NC(=O)CNC(=O)[C@H](Cc2ccccc2)NC(=O)[C@H](Cc2c[nH]cn2)NC1=O)[C@@H](C)O	–	–	healthy BALB/c mice	subcutaneous, 0.16 mg/kg, 6 d, single dose	–	haemoglobin	164 g/L
COc1cc(Nc2ncc3c(n2)-c2ccc(Cl)cc2C(c2c(F)cccc2OC)=NC3)ccc1C(=O)O	–	–	mouse, NB-1771 neuroblastoma xenograft	5.2 mg/kg	direction not given	median response score	2
O=C(NS(=O)(=O)c1ccc(F)cc1F)c1cc2ccccc2n1Cc1ccc(Br)c2ccccc12	–	–	mouse, acute hyperuricemia model	dose not given	–	serum uric acid	934 µM and 636 µM and 1190 µM
CSCCNc1nc(SCCC(F)(F)F)nc2c1ncn2[C@@H]1O[C@H](COP(=O)(O)OP(=O)(O)C(Cl)(Cl)P(=O)(O)O)[C@@H](O)[C@H]1O	–	ADP-induced platelet aggregation, LTA	human patients, platelet-rich plasma	dose not given, 30 min, with: ADP 20 µM	–	inhibition	34.1 ± 22.5%
CC(C)NCC(O)c1ccc(O)c(O)c1 (stereo not drawn)	–	–	ventricular cardiomyocytes, C57BL/6 mouse	dose not given, 0.096 s	–	sarcomere length	1.72 µm
C=CCn1c(=O)c2cnc(Nc3ccc(N4CCN(C)CC4)cc3)nc2n1-c1ccc2c(n1)[C@@](O)(CC)CC2	–	–	human, target lesions	400 mg 5:2 schedule, cycle three	–	target lesion reduction	35%
O=C(O)CSc1nnc(Br)n1-c1ccc(C2CC2)c2ccccc12	–	–	male mouse, acute hyperuricaemia model, serum	oral, 2 mg/kg, 4 h	–	serum uric acid	549 ± 131 µM
C[C@@H](O)CCOC(=O)C[C@@H](C)O	–	refers to: C18-OH/C16-DC acylcarnitine	human, plasma	60 min, log2-transformed values	–	metabolite level	-7.1 ± 0.54 µmol/L
OC(CCN1CCCCC1)(c1ccccc1)C1CC2C=CC1C2 (stereo not drawn)	–	resting-state EEG	healthy elderly humans	oral, 4 mg, eyes closed, LS mean	–	power, Delta EEG, Pz-O1	9.1 µV²
C[C@H]1C[C@H]2CSC(N)=N[C@@]2(c2nc(NC(=O)c3ccc(OC(F)F)cn3)cs2)CO1	–	refers to: Aβ1-40	healthy adults, plasma	5 mg once daily, day 7	baseline: placebo	percent change from baseline	-58.2%
O=C(O)CCc1nccc2c1[nH]c1ccccc12	–	–	mouse acute hyperuricaemia model	dose not given	–	serum uric acid decrease	41.7%
Cc1cc(C)c(CNC(=O)c2cc(Cl)c3c(c2C)O[C@@](C)([C@H]2CC[C@H](N(C)C)CC2)O3)c(=O)[nH]1	–	–	relapsed/refractory B-NHL patients	dose not given, IWG 2007 criteria	–	objective response rate (CR or PR)	47%
CC1(C)CCC(CN2CCN(c3ccc(C(=O)NS(=O)(=O)c4ccc(NCC5CCOCC5)c([N+](=O)[O-])c4)c(Oc4cnc5[nH]ccc5c4)c3)CC2)=C(c2ccc(Cl)cc2)C1	–	cell killing, flow cytometry PI exclusion	canine blood CD21+ B cells, dog 31	24 h	–	EC50	121 nM
FC(F)(F)Oc1cccc(-c2cnc3ccc(-c4ccncc4)nn23)c1	–	–	MDA-MB-231 xenograft, NSG mouse	oral, 10 mg/kg daily, day 8	higher = larger tumour	tumour size	0.0506 a.u. and 0.148 a.u. and 0.0625 a.u. and 0.075 a.u.
CN[C@@H](C)C(=O)N[C@H]1CN(S(=O)(=O)c2cccc(S(=O)(=O)N3CC[C@H]4CC[C@@H](C(=O)NC(c5ccccc5)c5ccccc5)N4C(=O)[C@@H](NC(=O)[C@H](C)NC)C3)c2)CC[C@H]2CC[C@@H](C(=O)NC(c3ccccc3)c3ccccc3)N2C1=O	–	RECIST 1.1	advanced pancreatic cancer patients	dose not given, with: nab-paclitaxel plus gemcitabine	–	disease control rate	60%

Excerpt of the above:
SMILES	target or system	test	system	setting	how to read	endpoint	result
CN(C)C(=O)c1cc2cnc(Nc3ccc(N4CCNCC4)cn3)nc2n1C1CCCC1	–	–	HR+/HER2− advanced breast cancer patients	dose not given, (neo)adjuvant hormone therapy	–	median PFS2	30.4 months
CCc1oc2ccccc2c1C(=O)c1cc(Br)c(O)c(Br)c1	–	–	male mouse, acute hyperuricaemia model, serum	oral, 2 mg/kg, 4 h	–	serum uric acid	283 ± 154 µM
COc1cc2cc(-c3ccc(CC(=O)Nc4cc(C(C)(C)C(F)(F)F)no4)cn3)cnc2cc1OC	–	RECIST v1.1	RET-altered advanced solid tumour patients	oral, 100 mg once daily, phase I	–	objective response rate	67%
Cc1ccc(C(=O)OCc2ccc([C@@H](CN)C(=O)Nc3ccc4cnccc4c3)cc2)c(C)c1	–	tonometry	Macaca cyclopis, ocular normotensive	ocular, 0.02%, 56 h	–	IOP	14.9 mmHg
